Assay results from different studies.
Parts stem from different laboratories: compare values within a part only. Several values in a cell are separate wells, animals, samples, runs or records. pIC50: −log10 of the molar value.

Study 1
Target: RNA binding protein fox-1 homolog 2, RRM domain, GST-SBP tag (RBFOX2, Homo sapiens, UniProt O43251-10, residues 100-194)
Technique: RNA Bind-n-Seq
Molecule type: RNA
Sample: in vitro
Tested at: 365 nM
Notes: natural RNA segment, single round, ends assumed
Baseline: no-protein control
Direction: higher = stronger binding
Shared flanks, not repeated: GGGAGUUCUACAGUCCGACGAUC … UGGAAUUCUCGGGUGCCAA
Construct (chain): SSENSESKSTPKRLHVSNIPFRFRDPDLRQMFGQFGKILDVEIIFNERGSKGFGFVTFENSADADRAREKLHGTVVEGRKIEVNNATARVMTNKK
`CCCUCGGACCACAGUGGCUCUGUAUGGCCAGGAACUGGGACUCGAGCUUUCAGAUUCUCAACUAGCCUUGGCAAAACAGCUGUAGGUGGCCUCCCUGACAACAGACACUC`: “RBNS enrichment (R)” 0.295.
`GUUUAAUGAACCUUGAGGAGAAACCGGCUCCUGCGGCUAAUGAGAUGUGCCAGGCCCAGUCUUCCCACCCCAGCUGCUCCACUGGCCACCGCUAGAGCCCCUCUCCCUAC`: “RBNS enrichment (R)” 0.755.
`CUGACAUGAUUUGAGAAGCUGCACACAUAGGCAGAGUCAUUUUCCUGUUUACAUUGUUUGUUUGGGGAAGAUUGGUAGGGGUCUAAUUACUGUUCACUUCCUUGUUGUAU` — result for “RBNS enrichment (R)”: 0.614.
`GAAAACACAUAUUUUAUGGAUGAGGCGUUUUGGUCUCCCCUGCAGUCGAUUUCUAGAAUCAAGUUUUAGAGUUCGGCUGAUGCAUCUGCCUGGGGACCUCAGAUGGGAGG`: “RBNS enrichment (R)” 0.709.
For `AAAUAUAUUUAUAAGGACCUAUUCCAAUAGGCUCUUGGUGUUUCCCAUAUCAAGAUUUCUGCUAGCUAAUGCAUAGAGGGAAUACUGUCUAAAAAUAGACCCUUUCUUCC`, “RBNS enrichment (R)” read 0.52.
`AAGAGGAGUAACCAGAGGACACACUUCCUUCCUUCUUUGGUGUCUGAGGAGUGUGAACUGUUGGGGUCAGUUAAGACCCAACAUAACUCUAUCAGAAGAAAACUGUUGUU` — result for “RBNS enrichment (R)”: 0.405.
`UCCUCUCUAAACAUAAUGAGGAAUCUCAGCAAUGAACUGGCUUCCCACCAGAGGGAAGAGUCUCUUGUGGGUGUGUUGGGUCUCCUAAUAAGAUGACUCUCCAUCUAGAU`: “RBNS enrichment (R)” 0.503.
Under “RBNS enrichment (R)”, `GAGGGGGGUUAGCAUUUCCACUUUCAGUUGAGUAGCAUUUUGUAGAAUAAAAUGAAUUAAGAUUGAAGAGCCUCUGAUGGUUGGUUUAUUCUGUCUUCCCAUCUCUCCUU` is recorded as 0.862.

Study 2
Target: Interferon regulatory factor 5, full length, phosphomimetic (IRF5, Homo sapiens, UniProt Q13568-2, residues 1-514, K96S/S451D/S453D/S456D/S462D)
Technique: protein-binding microarray
Molecule type: double-stranded DNA, one strand shown
Sample: in vitro
Tested at: 250 nM
Notes: 60-bp whole probe
Together with: salmon DNA 0.4 mg/ml
Baseline: random background probes
Direction: higher = stronger binding
Shared flanks, not repeated: GCCTAGCAC … GTCTTGATTCGCTTGACGCTGCTG
`GACGATAACGGGACTGGAGACGTGCTA` has a log fluorescence of 0.217 z-score.
`TTAGGTTTCGAATTTCGGTTAGTGCTA` gave a log fluorescence of 8.12 z-score.
`TTAGATTTGAGACTGGATTAGTGCTAG` gave a log fluorescence of 0.0275 z-score.
`TTAGGTTTCTGACTGGGTTAGTGCTAG` gave a log fluorescence of 0.714 z-score.
`GACGGAATCGGGTATCGGGACGTGCTA` has a log fluorescence of 0.608 z-score.
With `GACGGTATCGACGATCGGGACGTGCTA` the log fluorescence was 1.91 z-score.
`GACGATATCGGGCTTCGAGACGTGCTA` gave a log fluorescence of 0.864 z-score.
The log fluorescence of `TCATCTCTCCCATTCTGACTGTGCTAG` is reported as 0.417 z-score.

Study 3
Target: Sal-like protein 4, full length isoform A (SALL4, Homo sapiens, UniProt Q9UJQ4, residues 1-1053)
Sequence of UniProt Q9UJQ4 (whole entry, looked up): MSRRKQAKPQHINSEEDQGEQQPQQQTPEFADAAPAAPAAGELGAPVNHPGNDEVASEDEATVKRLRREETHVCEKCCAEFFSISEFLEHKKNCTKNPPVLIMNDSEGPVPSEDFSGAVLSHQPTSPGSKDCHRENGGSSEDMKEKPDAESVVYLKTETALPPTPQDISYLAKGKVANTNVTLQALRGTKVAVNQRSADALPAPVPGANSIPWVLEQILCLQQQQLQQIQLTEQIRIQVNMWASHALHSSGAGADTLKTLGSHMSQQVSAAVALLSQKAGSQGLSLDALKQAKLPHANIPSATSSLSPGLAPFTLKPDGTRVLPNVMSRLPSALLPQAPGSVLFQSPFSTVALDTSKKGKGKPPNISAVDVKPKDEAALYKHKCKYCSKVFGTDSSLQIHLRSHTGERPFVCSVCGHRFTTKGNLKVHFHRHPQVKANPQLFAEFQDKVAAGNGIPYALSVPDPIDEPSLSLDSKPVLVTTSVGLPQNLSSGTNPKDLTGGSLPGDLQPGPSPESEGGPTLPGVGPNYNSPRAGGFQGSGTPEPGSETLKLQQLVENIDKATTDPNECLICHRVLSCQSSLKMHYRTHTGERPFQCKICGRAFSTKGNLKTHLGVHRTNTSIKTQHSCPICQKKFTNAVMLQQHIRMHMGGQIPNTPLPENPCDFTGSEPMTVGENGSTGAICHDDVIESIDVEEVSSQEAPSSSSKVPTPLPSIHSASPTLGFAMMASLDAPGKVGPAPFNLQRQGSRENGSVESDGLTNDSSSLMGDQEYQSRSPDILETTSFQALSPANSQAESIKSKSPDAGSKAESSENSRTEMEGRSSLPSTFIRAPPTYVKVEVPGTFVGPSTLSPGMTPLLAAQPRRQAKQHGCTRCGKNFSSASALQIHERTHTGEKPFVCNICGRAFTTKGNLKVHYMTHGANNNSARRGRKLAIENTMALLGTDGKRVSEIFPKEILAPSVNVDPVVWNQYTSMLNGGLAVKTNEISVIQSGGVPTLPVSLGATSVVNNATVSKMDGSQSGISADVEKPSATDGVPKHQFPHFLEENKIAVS
Technique: universal PBM
Molecule type: double-stranded DNA, one strand shown
Sample: in vitro
Tested at: 600 nM
Notes: 8-mer, flanks averaged, mean of replicates
Direction: higher = stronger binding
The E-score of `GTGAATCA` is reported as 0.0148.
The E-score of `GACATCAA` is reported as 0.188.
For `CGCGTCCC`, the E-score was -0.372.
`ATCGAAGC` has an E-score of -0.0685.
`ATCTTATC` gave an E-score of 0.191.
The E-score of `CCGTACTC` is reported as -0.188.
For `AAGGAGCC`, the E-score was -0.236.
`CGCACCTC` gave an E-score of -0.22.

Study 4
Cell line: HEK-293T/ACE2
Tested at: concentration not given
Time: 16 (unit not given)
Baseline: vehicle
With `CC(=O)O[C@H]1Cc2ccccc2N(C(N)=O)c2ccccc21` the viability was 103%.
For `CC(=O)[C@H]1CC[C@H]2[C@@H]3CCC4=CC(=O)CC[C@]4(C)[C@H]3CC[C@]12C`, the viability was 103%.
For `COC(=O)N[C@H](C(=O)N[C@@H](Cc1ccccc1)[C@@H](O)CN(Cc1ccc(-c2ccccn2)cc1)NC(=O)[C@@H](NC(=O)OC)C(C)(C)C)C(C)(C)C`, the viability was 96.3%.

Study 5
Target: Replicase polyprotein 1ab, nsp13 helicase (rep, Severe acute respiratory syndrome coronavirus 2, UniProt P0DTD1)
Mode: inhibitor
Tested at: 20 µM
`COc1cccc(-c2cc(=O)c3ccccc3o2)c1N` gave an inhibition of -2.66%.
For `Cc1cc(C)cc(NC(=O)Cc2ccc(OC(C)(C)C(=O)O)cc2)c1`, the inhibition was 2.62%.
The inhibition of `COc1ccccc1N1CCN(CCCCN2C(=O)c3ccccc3C2=O)CC1` is reported as 0.84%.
The inhibition of `COc1cc2nc(N(C)CCCNC(=O)C3CCCO3)nc(N)c2cc1OC` (centres unmarked) is reported as 7.81%.
The inhibition of `Clc1ccc(-c2nc3sccn3c2/C=N/OCc2ccc(Cl)c(Cl)c2)cc1` is reported as 1.34%.
`COc1cc2nc(N3CCN(C(=O)COc4c(OC)cccc4C(C)C)CC3)nc(N)c2cc1OC` has an inhibition of 6.79%.
`O=C(NC(=O)c1c(F)cccc1F)Nc1cc(Cl)c(OC(F)(F)C(F)C(F)(F)F)cc1Cl` (centres unmarked) gave an inhibition of 2.77%.
`c1ccc2sc(N3CCN(Cc4ccc5c(c4)OCO5)CC3)nc2c1` has an inhibition of 0.37%.
`CC(=O)O[C@@H]1C[C@H]2C(C)(C)C(=O)C=C[C@]2(C)[C@H]2CC[C@@]3(C)[C@H](c4ccoc4)OC(=O)[C@H]4O[C@]43[C@@]21C` gave an inhibition of 0.73%.
For `O=C1CC[C@@](c2ccccc2)(C2CCN(Cc3ccc(I)cc3)CC2)C(=O)N1`, the inhibition was 4.47%.
`COc1ccc(CCNCc2ccc(OCc3ccc(Cl)nc3)c(OC)c2)cc1OC` has an inhibition of -0.54%.
`Cn1ccc2cc(NC(=O)Nc3cccnc3)ccc21` has an inhibition of 6.46%.
With `C[C@]12C=CC(=O)C=C1CC[C@@H]1[C@@H]2CC[C@]2(C)OC(=O)CC[C@@H]12` the inhibition was -2.96%.
The inhibition of `N=C1N[C@H]2[C@H](CS[C@H]2CCCCC(=O)O)N1` is reported as -1.51%.
`CCOC(=O)c1ncc2[nH]c3cccc(OC(C)C)c3c2c1C` gave an inhibition of 6.1%.
The inhibition of `CN1CCC2=C(C1)C(c1ccccc1)c1ccccc12` (centres unmarked) is reported as 40.1%.
The inhibition of `O=C(C[S+]([O-])C(c1ccccc1)c1ccccc1)NO` (centres unmarked) is reported as 1.78%.
With `C[C@@H]1O[C@@H](Oc2c(-c3cc(O)c(O)c(O)c3)oc3cc(O)cc(O)c3c2=O)[C@H](O)[C@H](O)[C@H]1O` the inhibition was -0.1%.
With `CC1=N[C@H](C(=O)O)CCN1` the inhibition was -1.25%.
For `COc1ccc(C2=N[C@@H](c3ccc(Cl)cc3)[C@@H](c3ccc(Cl)cc3)N2C(=O)N2CCNC(=O)C2)c(OC(C)C)c1`, the inhibition was 10.5%.
`O=C(Nc1ccccc1)OCC(CN1CCCCC1)OC(=O)Nc1ccccc1` (centres unmarked) gave an inhibition of 1.62%.
The inhibition of `O=P(O)(O)C(Cl)(Cl)P(=O)(O)O` is reported as 4.1%.
`C[C@H](NC(=O)c1sccc1OCc1ccc(Cl)cc1)c1ccccc1` gave an inhibition of 1.36%.
With `O=C(NO)c1ccc(O)c(O)c1` the inhibition was -1.47%.

Mixed results
Read-out: enzyme activity
Mode: inhibitor
`O=c1sn(-c2cccc3ccccc23)c(=O)n1Cc1ccccc1` gave an inhibition of 30.7% (chymotrypsin; 10 µM, with DTT).
`Cc1cc(-c2ccc(/N=N/c3ccc4c(S(=O)(=O)O)cc(S(=O)(=O)O)c(N)c4c3O)c(C)c2)ccc1/N=N/c1ccc2c(S(=O)(=O)O)cc(S(=O)(=O)O)c(N)c2c1O` gave a pIC50 of < 4.70 and 5.04 (Replicase polyprotein 1ab, main protease (rep, Severe acute respiratory syndrome coronavirus 2, UniProt P0DTD1); without DTT).

A few entries again (study 1):
`GUUUAAUGAACCUUGAGGAGAAACCGGCUCCUGCGGCUAAUGAGAUGUGCCAGGCCCAGUCUUCCCACCCCAGCUGCUCCACUGGCCACCGCUAGAGCCCCUCUCCCUAC`: “RBNS enrichment (R)” 0.755.
`CUGACAUGAUUUGAGAAGCUGCACACAUAGGCAGAGUCAUUUUCCUGUUUACAUUGUUUGUUUGGGGAAGAUUGGUAGGGGUCUAAUUACUGUUCACUUCCUUGUUGUAU` — result for “RBNS enrichment (R)”: 0.614.
`GAAAACACAUAUUUUAUGGAUGAGGCGUUUUGGUCUCCCCUGCAGUCGAUUUCUAGAAUCAAGUUUUAGAGUUCGGCUGAUGCAUCUGCCUGGGGACCUCAGAUGGGAGG`: “RBNS enrichment (R)” 0.709.
For `AAAUAUAUUUAUAAGGACCUAUUCCAAUAGGCUCUUGGUGUUUCCCAUAUCAAGAUUUCUGCUAGCUAAUGCAUAGAGGGAAUACUGUCUAAAAAUAGACCCUUUCUUCC`, “RBNS enrichment (R)” read 0.52.
`AAGAGGAGUAACCAGAGGACACACUUCCUUCCUUCUUUGGUGUCUGAGGAGUGUGAACUGUUGGGGUCAGUUAAGACCCAACAUAACUCUAUCAGAAGAAAACUGUUGUU` — result for “RBNS enrichment (R)”: 0.405.
`UCCUCUCUAAACAUAAUGAGGAAUCUCAGCAAUGAACUGGCUUCCCACCAGAGGGAAGAGUCUCUUGUGGGUGUGUUGGGUCUCCUAAUAAGAUGACUCUCCAUCUAGAU`: “RBNS enrichment (R)” 0.503.
Under “RBNS enrichment (R)”, `GAGGGGGGUUAGCAUUUCCACUUUCAGUUGAGUAGCAUUUUGUAGAAUAAAAUGAAUUAAGAUUGAAGAGCCUCUGAUGGUUGGUUUAUUCUGUCUUCCCAUCUCUCCUU` is recorded as 0.862.
